Values quoted from earlier work, collected from citations in different studies.
Protocols differ between the studies behind these lines. Numbers after ± are the reported error. Converted amounts (≈) assume the structure as drawn.
Chain of UniProt Q9NSY1 (whole entry, looked up): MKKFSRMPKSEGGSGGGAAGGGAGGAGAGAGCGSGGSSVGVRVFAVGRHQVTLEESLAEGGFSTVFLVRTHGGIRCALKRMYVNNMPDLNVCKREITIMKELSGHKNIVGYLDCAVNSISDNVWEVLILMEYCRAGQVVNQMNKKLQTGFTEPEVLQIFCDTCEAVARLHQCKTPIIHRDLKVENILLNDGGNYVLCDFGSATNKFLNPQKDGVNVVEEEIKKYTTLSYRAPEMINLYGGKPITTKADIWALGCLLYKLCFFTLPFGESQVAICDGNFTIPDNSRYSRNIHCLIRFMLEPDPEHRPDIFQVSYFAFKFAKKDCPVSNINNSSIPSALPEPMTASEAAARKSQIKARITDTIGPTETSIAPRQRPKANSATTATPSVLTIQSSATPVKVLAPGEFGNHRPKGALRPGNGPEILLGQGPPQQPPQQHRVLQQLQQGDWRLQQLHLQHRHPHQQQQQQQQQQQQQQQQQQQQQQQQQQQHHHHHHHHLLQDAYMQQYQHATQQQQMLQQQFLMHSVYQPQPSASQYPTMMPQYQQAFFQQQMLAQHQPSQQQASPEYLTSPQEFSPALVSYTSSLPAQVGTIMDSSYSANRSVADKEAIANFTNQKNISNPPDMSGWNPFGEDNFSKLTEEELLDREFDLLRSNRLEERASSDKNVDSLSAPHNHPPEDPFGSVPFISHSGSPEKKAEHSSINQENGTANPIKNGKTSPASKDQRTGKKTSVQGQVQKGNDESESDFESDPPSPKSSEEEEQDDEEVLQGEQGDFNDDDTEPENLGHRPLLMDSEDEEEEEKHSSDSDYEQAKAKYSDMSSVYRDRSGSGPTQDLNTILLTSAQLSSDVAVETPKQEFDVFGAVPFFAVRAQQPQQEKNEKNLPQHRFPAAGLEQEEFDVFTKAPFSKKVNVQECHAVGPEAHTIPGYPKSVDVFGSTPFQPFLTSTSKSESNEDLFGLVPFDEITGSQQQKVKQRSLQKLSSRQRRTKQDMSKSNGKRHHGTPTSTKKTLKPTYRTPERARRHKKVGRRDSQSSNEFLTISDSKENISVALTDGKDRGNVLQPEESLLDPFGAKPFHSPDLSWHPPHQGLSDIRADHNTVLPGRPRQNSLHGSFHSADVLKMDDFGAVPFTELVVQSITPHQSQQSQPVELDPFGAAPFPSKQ

CC1(C)S[C@@H]2[C@H](NC(=O)[C@H](N)c3ccccc3)C(=O)N2[C@H]1C(=O)O — MIC (Escherichia coli; clinical isolate RKI-No_95/15): > 16 µg/mL
C[C@H]1COCCN1c1nc(-c2cnc(N)cc2C(F)F)nc(N2CCOCC2)n1 — GI50 (AU565): 0.212 µM
CN(C)c1ccc(C(=O)N(CC(=O)NCc2ccccc2)Cc2ccc(C(=O)Nc3ccccc3N)cc2)cc1 — IC50 (A2780cisR; cellular HDAC activity, inhibitor; with: Boc-Lys(ε-Ac)-AMC substrate): 1.63 ± 0.27 µM
O=C(Nc1cccc(NC(=O)c2ccccn2)c1)Nc1ccc2ccccc2c1 — IC50 (A549; cell proliferation): 0.24 µM
Cc1cc(-c2nccc3c2ccn3CC(=O)Nc2ccc(-c3cnccn3)cn2)ccn1 — IC50 (murine L cells expressing WNT3A; WNT release, inhibitor): 0.00064 µM
COc1cc2c(cc1OC)C(c1c[nH]c3ncccc13)NCC2 (stereo not drawn) — IC50 (COLO 205; cytotoxicity): > 100 µM
O=c1ncccn1[C@@H]1O[C@H](CO)[C@@H](O)[C@H]1O — IC50 (Hey): 64.7 µM
COC(=O)CC1CCN(C(=O)c2cc(-c3cccs3)nn2-c2ccccc2)CC1 — IC50 (human monocytes; phagocytosis of anti-D RBCs): 4.2 µM
Nc1cccc2c1CN(C1CCC(=O)NC1=O)C2=O (stereo not drawn) — IC50 (PBMCs; measured: TNF-alpha secretion): 0.013 µM
COc1cccc2c1C(=O)c1c(O)c3c(c(O)c1C2=O)C[C@@](O)(C(=O)CO)C[C@@H]3O[C@H]1C[C@H](N)[C@H](O)[C@H](C)O1 — IC50 (HepG2): 9.2 µM
N/C(CC(O)c1cc2c(F)cc(F)cc2c2cc(C(F)(F)F)ccc12)=N\c1ccc(F)cc1 (stereo not drawn) — IC50 (HepG2; cell viability): 20.7 ± 2.2 µM
COc1ccc(-c2cn(CC(=O)O[C@H]3c4cc5c(cc4[C@@H](c4cc(OC)c(OC)c(OC)c4)[C@H]4C(=O)OC[C@@H]43)OCO5)nn2)cc1 — IC50 (A549; cell growth; 72 h): 0.0158 µM
CNC(C)C1CCC(N)C(OC2C(N)CC(N)C(OC3OCC(C)(O)C(NC)C3O)C2O)O1 (stereo not drawn) — MIC (Escherichia coli; clinical isolate RKI-No_1023/14): 1 µg/mL (≈ 2.09 µM)
COc1cc2c(Oc3ccc4[nH]c(C)cc4c3F)ncnc2cc1OCCCN1CCCC1 — IC50 (U-87 MG): 7.27 µM
Cc1ccc(C)c(COc2cc(NC(=O)Cc3ccccc3)ccc2N(C)S(C)(=O)=O)c1 — IC50 (SK-BR-3; cell growth, MTT; 48 h): 121 ± 35.1 µM
CC1CS(=O)(=O)CCN1/N=C/c1ccc([N+](=O)[O-])o1 (stereo not drawn) — IC50 (Vero CCL-81): 998 ± 91 µM
C=CC(=O)Nc1cc(Nc2nccc(-c3cn(C)c4ccccc34)n2)c(OC)cc1N(C)CCN(C)C — IC50 (U-87 MG): 15.1 µM
O=C(Nc1nccs1)c1cnn(-c2ccccc2)c1-n1cccc1 — IC50 (human monocytes; phagocytosis of anti-D RBCs): > 5 µM
COc1cc(C(=O)n2nc(Nc3ccc(C)cc3)nc2N)cc(OC)c1OC — IC50 (A549; cell growth; 72 h): 0.00051 µM
Nc1cc(C(F)(F)F)c(-c2nc(N3CCOCC3)nc(N3CCOCC3)n2)cn1 — remaining activity (BMP-2-inducible protein kinase (BMP2K, Homo sapiens, UniProt Q9NSY1); enzyme activity; 10 µM; relative to: untreated): 87%
N#CC[C@H](C1CCCC1)n1cc(-c2ncnc3[nH]ccc23)cn1 — IC50 (MHH-CALL-4; cell growth; inherent resistance): > 20 µM
Nc1cc(C(F)(F)F)c(-c2cc(N3CCOCC3)nc(N3CCOCC3)n2)cn1 — IC50 (U-87 MG): 3 µM
N#CCNC(=O)c1ccc(-c2ccnc(Nc3ccc(N4CCOCC4)cc3)n2)cc1 — IC50 (MDA-MB-468; cell growth; 72 h): 3.4 µM
O=c1c(O)c(-c2ccc(O)c(O)c2)oc2cc(O)cc(O)c12 — IC50 (RAW264.7; NO production, inhibitor; with: LPS): 17 ± 2.1 µM
COc1cc2c3c(n(CCCN4CCOCC4)c(=O)c2cc1OC)-c1cc2c(cc1C3=O)OCO2 — IC50 (HCT-116; 72 h): 1.2 µM
Cc1c(C#N)cccc1[C@@H](C)Nc1nnc(C)c2cnc(N3CCOCC3)cc12 — IC50 (RERF-LC-Ad1; cell viability, 3D CellTiter-Glo; 14 days): > 1 µM
CC(C)(C)c1nc(-c2cccc(NS(=O)(=O)c3c(F)cccc3F)c2F)c(-c2ccnc(N)n2)s1 — IC50 (U-87 MG): 381 µM
Cc1ccc(C)c(COc2cc(NC(=O)c3ccccc3)ccc2N(C)S(C)(=O)=O)c1 — IC50 (SK-BR-3; cell growth, MTT; 48 h): 3.65 ± 0.19 µM
CCN(CC)CCNC(=O)Nc1nc2ccc(-c3cnc(OC)c(NS(=O)(=O)c4ccc(F)cc4)c3)cc2s1 — IC50 (A549; cell growth; 72 h): 0.45 µM
Cn1ncc(Cl)c1-c1cc(C(=O)N[C@H](CN)Cc2ccc(F)c(F)c2)oc1Cl — IC50 (U-87 MG): 90.4 µM
COc1ccc(Cc2nccc3cc(OC)c(OC)cc23)cc1OC — IC50 (A549; oxygen consumption rate): 15.4 µM
COc1cc2c(Oc3ccc(NC(=O)C4(C(=O)Nc5ccc(F)cc5)CC4)cc3F)ccnc2cc1OCCCN1CCOCC1 — IC50 (U-87 MG): 2.65 µM
N=C(N)c1ccc(Nc2ccc(-c3cc4ccc(C(=N)N)cc4[nH]3)cc2)cc1 — IC50 (CMK; cell proliferation): 1.31 µM

For quick reference, copied from above:
CC1(C)S[C@@H]2[C@H](NC(=O)[C@H](N)c3ccccc3)C(=O)N2[C@H]1C(=O)O — MIC (Escherichia coli; clinical isolate RKI-No_95/15): > 16 µg/mL
C[C@H]1COCCN1c1nc(-c2cnc(N)cc2C(F)F)nc(N2CCOCC2)n1 — GI50 (AU565): 0.212 µM
